Experimental data pooled from the literature.
Lines come from different studies, so protocols differ. Several values in a cell are separate wells, animals, samples, runs or records.

With `Oc1c(Cl)cc(Cl)c2cccnc12` the MIC was 37.4 µM (Salmonella enterica; microbial growth, agar dilution; ATCC13311 TYPHIMURIUM).
For `CCCCCCCCCCCCCCCCCCSCC1OC(OC2C(N)CC(N)C(OC3OC(CN)C(O)CC3N)C2O)C(O)C(N)C1O` (stereo not drawn), the MIC was over 150 µg/mL (Salmonella enterica; ATCC 14028).
`COc1c2c(cc3oc(=O)cc(-c4ccc(Cl)cc4)c13)C(=O)c1cc(C)cc(O)c1C2=O` has an MIC of 64 µg/mL (Bacillus cereus; microbial growth).
With `O=[N+]([O-])c1ccc2c(c1)C=[N+]1N3C(=[O+][Cu-2]1([Cl])[O]2)c1ccccc1NC3c1cc([N+](=O)[O-])ccc1O` (stereo not drawn) the MIC was 128 µg/mL (Mycobacterium kansasii; broth microdilution; DSM 44162; 7 days).
`CCCCCCCCCC1CC2CCC3CC(CCCCCCCCC)NC(=N1)N23` (stereo not drawn) has an MIC of 2.99 µM (Candida krusei; fungal growth; ATCC 6258).
`CC[C@@H](C)[C@@H](NC(=O)[C@@H](C)NC(=O)[C@@H](CCCCN)NC(=O)[C@@H](CC(C)C)NC(=O)[C@@H](CC(C)C)NC(=O)[C@H](NC(=O)[C@@H](CCCCN)NC(=O)[C@@H](CC(C)C)NC(=O)[C@@H](CCCCN)NC(=O)[C@@H](CCCCN)NC(=O)[C@@H](CCCCN)NC(=O)[C@@H](CCCCN)NC(=O)[C@@H](C)NC(=O)[C@@H](CCCCN)NC(=O)[C@@H](CO)NC(=O)[C@@H](Cc1ccccc1)NC(=O)[C@H](NC(=O)[C@@H](CCCCN)NC(=O)[C@@H](CC(C)C)NC(=O)[C@@H](Cc1ccccc1)NC(=O)[C@@H](CO)NC(=O)[C@@H](CCCCN)NC(=O)[C@@H](Cc1c[nH]c2ccccc12)NC(=O)[C@@H](CCCCN)NC(C)=O)[C@H](C)O)[C@H](C)O)C(=O)N[C@H](CO)C(=O)N[C@H](CCCCN)C(N)=O` gave an MIC of 0.6 µM (Acinetobacter baumannii; 884, Mueller-Hinton broth; 24 h, 37 °C).
`Oc1ccccc1C1Nc2ccccc2C2=[O+][Cu-2]3([Cl])[O]c4ccccc4C=[N+]3N21` (stereo not drawn) has an MIC of 128 µg/mL (Mycobacterium kansasii; broth microdilution; DSM 44162; 7 days).
`N#Cc1ccc2cccc(O)c2n1` has an MIC of over 1500 µM (Bacillus cereus; microbial growth, agar dilution).
`CC[C@@H](C)[C@@H](NC(=O)[C@@H](C)NC(=O)[C@@H](CCCCN)NC(=O)[C@@H](CC(C)C)NC(=O)[C@@H](C)NC(=O)[C@H](NC(=O)[C@@H](CCCCN)NC(=O)[C@@H](CC(C)C)NC(=O)[C@H](NC(=O)[C@@H](CCCCN)NC(=O)[C@@H](CCCCN)NC(=O)[C@@H](CCCCN)NC(=O)[C@@H](C)NC(=O)[C@@H](CCCCN)NC(=O)[C@@H](CO)NC(=O)[C@@H](Cc1ccccc1)NC(=O)[C@H](NC(=O)[C@@H](CCCCN)NC(=O)[C@@H](CC(C)C)NC(=O)[C@@H](Cc1ccccc1)NC(=O)[C@@H](CO)NC(=O)[C@@H](CCCCN)NC(=O)[C@@H](Cc1c[nH]c2ccccc12)NC(=O)[C@@H](CCCCN)NC(C)=O)[C@H](C)O)C(C)C)[C@H](C)O)C(=O)N[C@H](CO)C(=O)N[C@H](CCCCN)C(N)=O` has an MIC of 0.7 µM (Acinetobacter baumannii; 985, Mueller-Hinton broth; 24 h, 37 °C).
`Oc1c(Br)ccc2cccnc12` gave an MIC of 35.7 µM (Salmonella enterica; microbial growth, agar dilution; ENTERITIDIS).
For `Cc1cc(O)cc2c1C(=O)c1c(cc3oc(=O)cc(-c4ccc(Cl)cc4)c3c1O)C2=O`, the MIC was 8 µg/mL (Bacillus cereus; microbial growth).
`CC[C@@H](C)[C@@H](NC(=O)[C@@H](C)N)C(=O)N[C@H](CCCCN)C(=O)N[C@@H](C(=O)N[C@H](CCCNC(=N)N)C(=O)N[C@H](CCCCN)C(=O)N[C@H](CC(C)C)C(=O)N[C@H](Cc1ccccc1)C(=O)N[C@H](CCCCN)C(=O)N[C@H](CCCCN)C(=O)N[C@H](CC(C)C)C(=O)N[C@H](CC(C)C)C(=O)N[C@H](CCCNC(=N)N)C(N)=O)[C@H](C)CC` gave an MIC of 6.25 µg/mL (Escherichia coli; broth microdilution checkerboard; ATCC 25922, LB medium; with: levofloxacin).
For `CC(=O)N[C@H](CCCCN)C(=O)N[C@H](CC(C)C)C(=O)N[C@H](CCCCN)C(=O)N[C@H](CO)C(=O)N[C@H](CC(C)C)C(=O)N[C@H](CC(C)C)C(=O)N[C@H](CCCCN)C(=O)N[C@@H](C(=O)N[C@H](CC(C)C)C(=O)N[C@H](CO)C(=O)N[C@H](CCCCN)C(=O)N[C@H](C)C(=O)N[C@H](CCCCN)C(=O)N[C@H](CCCCN)C(=O)N[C@H](CCCCN)C(=O)N[C@H](CC(C)C)C(=O)N[C@H](CC(C)C)C(=O)N[C@H](CCCCN)C(=O)N[C@@H](C(=O)N[C@H](C)C(=O)N[C@H](CC(C)C)C(=O)N[C@H](CCCCN)C(=O)N[C@H](C)C(=O)N[C@H](CC(C)C)C(=O)N[C@H](CO)C(=O)N[C@H](CCCCN)C(N)=O)[C@H](C)O)[C@H](C)O`, the MIC was 0.7 µM (Acinetobacter baumannii; 964, Mueller-Hinton broth; 24 h, 37 °C).
The MIC of `CCCCCC1CC2CCCC3CC(C)N=C(N1)N32` (stereo not drawn) is reported as 15 µM and 15.9 µM (Candida krusei; fungal growth; ATCC 6258).
With `CC[C@@H](C)[C@@H](NC(=O)[C@@H](C)NC(=O)[C@@H](CCCCN)NC(=O)[C@@H](CC(C)C)NC(=O)[C@@H](CC(C)C)NC(=O)[C@H](NC(=O)[C@@H](CCCCN)NC(=O)[C@@H](CC(C)C)NC(=O)[C@@H](C)NC(=O)[C@@H](CCCCN)NC(=O)[C@@H](CCCCN)NC(=O)[C@@H](CCCCN)NC(=O)[C@@H](C)NC(=O)[C@@H](CCCCN)NC(=O)[C@@H](CO)NC(=O)[C@@H](Cc1ccccc1)NC(=O)[C@H](NC(=O)[C@@H](CCCCN)NC(=O)[C@@H](CC(C)C)NC(=O)[C@@H](Cc1ccccc1)NC(=O)[C@@H](CO)NC(=O)[C@@H](CCCCN)NC(=O)[C@@H](Cc1c[nH]c2ccccc12)NC(=O)[C@@H](CCCCN)NC(C)=O)[C@H](C)O)[C@H](C)O)C(=O)N[C@H](CO)C(=O)N[C@H](CCCCN)C(N)=O` the MIC was 1.3 µM (Acinetobacter baumannii; 649, Mueller-Hinton broth; 24 h, 37 °C).
For `COc1ccccc1NC(=O)OC1C(C)C(OC)C=COC2(C)Oc3c(C)c(O)c4c(c3C2=O)C2=NC3(CCN(CC(C)C)CC3)NC2=C(NC(=O)C(C)=CC=CC(C)C(O)C(C)C(O)C1C)C4=O` (stereo not drawn), the MIC was 0.017 µM (Mycobacteroides abscessus; microbial growth; ATCC19977).
`CC(=O)N[C@H](CCCCN)C(=O)N[C@H](CC(C)C)C(=O)N[C@H](CCCCN)C(=O)N[C@H](CO)C(=O)N[C@H](CC(C)C)C(=O)N[C@H](CC(C)C)C(=O)N[C@H](CCCCN)C(=O)N[C@@H](C(=O)N[C@H](CC(C)C)C(=O)N[C@H](CO)C(=O)N[C@H](CCCCN)C(=O)N[C@H](C)C(=O)N[C@H](CCCCN)C(=O)N[C@H](CCCCN)C(=O)N[C@H](CCCCN)C(=O)N[C@H](CCCCN)C(=O)N[C@H](CC(C)C)C(=O)N[C@H](CCCCN)C(=O)N[C@@H](C(=O)N[C@H](CC(C)C)C(=O)N[C@H](CC(C)C)C(=O)N[C@H](CCCCN)C(=O)N[C@H](C)C(=O)N[C@H](CC(C)C)C(=O)N[C@H](CO)C(=O)N[C@H](CCCCN)C(N)=O)[C@H](C)O)[C@H](C)O` has an MIC of 0.3 µM (Acinetobacter baumannii; 899, Mueller-Hinton broth; 24 h, 37 °C).
`CC(C=CC(O)=C1C(=O)CNC1=O)=CC(C)C1OC2(C)OC(C(=O)C(O)C2(C)O)C1C` (stereo not drawn) has an MIC of over 100 µM (Bacillus cereus).

A few entries again:
For `COc1ccccc1NC(=O)OC1C(C)C(OC)C=COC2(C)Oc3c(C)c(O)c4c(c3C2=O)C2=NC3(CCN(CC(C)C)CC3)NC2=C(NC(=O)C(C)=CC=CC(C)C(O)C(C)C(O)C1C)C4=O` (stereo not drawn), the MIC was 0.017 µM (Mycobacteroides abscessus; microbial growth; ATCC19977).
`CC(=O)N[C@H](CCCCN)C(=O)N[C@H](CC(C)C)C(=O)N[C@H](CCCCN)C(=O)N[C@H](CO)C(=O)N[C@H](CC(C)C)C(=O)N[C@H](CC(C)C)C(=O)N[C@H](CCCCN)C(=O)N[C@@H](C(=O)N[C@H](CC(C)C)C(=O)N[C@H](CO)C(=O)N[C@H](CCCCN)C(=O)N[C@H](C)C(=O)N[C@H](CCCCN)C(=O)N[C@H](CCCCN)C(=O)N[C@H](CCCCN)C(=O)N[C@H](CCCCN)C(=O)N[C@H](CC(C)C)C(=O)N[C@H](CCCCN)C(=O)N[C@@H](C(=O)N[C@H](CC(C)C)C(=O)N[C@H](CC(C)C)C(=O)N[C@H](CCCCN)C(=O)N[C@H](C)C(=O)N[C@H](CC(C)C)C(=O)N[C@H](CO)C(=O)N[C@H](CCCCN)C(N)=O)[C@H](C)O)[C@H](C)O` has an MIC of 0.3 µM (Acinetobacter baumannii; 899, Mueller-Hinton broth; 24 h, 37 °C).
